Measured values collected from several papers.
Each line is one published result; not all experiments were run side by side.
Organism: Acinetobacter baumannii

SMILES | assay | system | conditions | how to read | MIC
N=C(N)NCCC[C@H](NC(=O)[C@@H](N)CCCNC(=N)N)C(=O)N[C@@H](Cc1c[nH]c2ccccc12)C(=O)N[C@@H](Cc1c[nH]c2ccccc12)C(=O)N[C@@H](CCC(N)=O)C(=O)N[C@@H](Cc1ccccc1)C(=O)N[C@@H](CCC(N)=O)C(=O)N[C@@H](Cc1ccccc1)C(=O)N[C@@H](CCCCN)C(N)=O | broth microdilution, optical density |  |  |  | 40 µM
CC[C@H](C)[C@H](NC(=O)[C@H](CC(C)C)NC(=O)[C@H](CCCNC(=N)N)NC(=O)[C@@H](N)CCCNC(=N)N)C(=O)N[C@@H](CCCNC(=N)N)C(=O)N[C@H](C(=O)N[C@@H](CCCCN)C(=O)N[C@H](C(=O)NCC(=O)N1CCC[C@H]1C(=O)N[C@H](C(=O)N[C@H](C(=O)N[C@@H](Cc1ccc(O)cc1)C(=O)N[C@@H](CCCCN)C(=O)N[C@@H](Cc1ccc(O)cc1)C(=O)N[C@@H](Cc1ccccc1)C(=O)N[C@@H](CCCCN)C(=O)N[C@@H](CCCCN)C(=O)N[C@@H](CCC(N)=O)C(=O)N[C@@H](CC(C)C)C(=O)N[C@@H](CC(C)C)C(=O)N[C@@H](CCCCN)C(=O)N[C@@H](CCCCN)C(N)=O)[C@@H](C)CC)[C@@H](C)CC)[C@@H](C)O)[C@@H](C)O |  | KCCM 40203, Mueller-Hinton broth | 24 h |  | 2 µM
CC[C@H](C)[C@H](N)C(=O)N[C@@H](CCCNC(=N)N)C(=O)N[C@H](C(=O)N[C@@H](Cc1c[nH]c2ccccc12)C(=O)N[C@@H](Cc1ccccc1)C(=O)N[C@H](C(=O)N[C@@H](CCCCN)C(=O)N[C@H](C(=O)N[C@@H](CCCNC(=N)N)C(=O)N[C@@H](CCCCN)C(=O)N[C@@H](Cc1c[nH]c2ccccc12)C(=O)N[C@@H](CCCCN)C(=O)N[C@@H](C)C(=O)N[C@H](C(=O)N[C@@H](Cc1ccc(O)cc1)C(=O)N[C@@H](Cc1c[nH]cn1)C(=O)N[C@H](C(N)=O)[C@@H](C)O)[C@@H](C)CC)C(C)C)[C@@H](C)CC)C(C)C | broth dilution | ATCC 19606 |  |  | 12.5 µM
CC[C@H](C)[C@H](NC(=O)CNC(=O)[C@H](CC(=O)O)NC(=O)[C@H](CCCNC(=N)N)NC(=O)[C@@H](NC(=O)[C@H](CC(N)=O)NC(=O)[C@H](CCCNC(=N)N)NC(=O)CNC(=O)[C@@H](NC(=O)[C@H](CCCCN)NC(=O)[C@H](CCC(=O)O)NC(=O)[C@@H](NC(=O)[C@H](CCCCN)NC(=O)[C@H](CCCCN)NC(=O)[C@H](Cc1ccccc1)NC(=O)[C@@H](NC(=O)[C@H](CCCCN)NC(=O)[C@H](Cc1c[nH]c2ccccc12)NC(=O)[C@@H](N)CCCNC(=N)N)[C@@H](C)CC)[C@@H](C)CC)C(C)C)C(C)C)C(=O)N[C@H](C(=O)N[C@@H](CCCCN)C(=O)N[C@@H](C)C(=O)NCC(=O)NCC(=O)N[C@@H](C)C(=O)N[C@H](C(=O)N[C@@H](C)C(=O)N[C@H](C(=O)N[C@H](C(=O)NCC(=O)N[C@@H](CCC(N)=O)C(=O)N[C@@H](C)C(=O)N[C@@H](C)C(=O)N[C@H](C(=O)N[C@H](C(=O)N[C@H](C(=O)N[C@@H](CCCCN)C(N)=O)C(C)C)C(C)C)[C@@H](C)O)C(C)C)C(C)C)C(C)C)[C@@H](C)CC |  | KCCM 40203, Mueller-Hinton broth | 16 h, 37 °C | growth inhibition over 99% | 2 µM
NC[C@H]1O[C@H](O[C@H]2[C@H](O)[C@@H](O[C@H]3O[C@H](CO)[C@@H](O)[C@H](N)[C@H]3O)[C@H](N)C[C@@H]2N)[C@H](N)C[C@@H]1O |  | carbapenem-resistant clinical isolate |  |  | > 8 µg/mL
CC[C@H](C)[C@H](NC(=O)CNC(=O)[C@H](CC(=O)O)NC(=O)[C@H](CCCNC(=N)N)NC(=O)[C@@H](NC(=O)[C@H](CC(N)=O)NC(=O)[C@H](CCCNC(=N)N)NC(=O)CNC(=O)[C@@H](NC(=O)[C@H](CCCCN)NC(=O)[C@H](CCC(=O)O)NC(=O)[C@@H](NC(=O)[C@H](CCCCN)NC(=O)[C@H](CCCCN)NC(=O)[C@H](Cc1ccccc1)NC(=O)[C@@H](NC(=O)[C@H](CCCCN)NC(=O)[C@H](Cc1c[nH]c2ccccc12)NC(=O)[C@@H](N)CCCNC(=N)N)[C@@H](C)CC)[C@@H](C)CC)C(C)C)C(C)C)C(=O)N[C@H](C(=O)N[C@@H](CCCCN)C(=O)N[C@@H](C)C(=O)N1CCC[C@H]1C(=O)N1CCC[C@H]1C(=O)N[C@@H](C)C(=O)N[C@H](C(=O)N[C@@H](C)C(=O)N[C@H](C(=O)N[C@H](C(=O)NCC(=O)N[C@@H](CCC(N)=O)C(=O)N[C@@H](C)C(=O)N[C@@H](C)C(=O)N[C@H](C(=O)N[C@H](C(=O)N[C@H](C(=O)N[C@@H](CCCCN)C(N)=O)C(C)C)C(C)C)[C@@H](C)O)C(C)C)C(C)C)C(C)C)[C@@H](C)CC |  | KCCM 40203, Mueller-Hinton broth | 16 h, 37 °C | growth inhibition over 99% | 4 µM
CC[C@H](C)[C@H](NC(=O)[C@H](CCCNC(=N)N)NC(=O)[C@H](CCCNC(=N)N)NC(=O)[C@H](CCCNC(=N)N)NC(=O)[C@H](CCCNC(=N)N)NC(=O)[C@H](CC(C)C)NC(=O)[C@H](CCCNC(=N)N)NC(=O)[C@H](CO)NC(=O)[C@@H](N)CO)C(=O)N[C@H](C(=O)N[C@@H](CC(C)C)C(=O)N[C@@H](CCCNC(=N)N)C(=O)N[C@@H](CCCNC(=N)N)C(=O)N[C@@H](CCCNC(=N)N)C(=O)N[C@@H](CCCNC(=N)N)C(=O)N[C@@H](Cc1ccccc1)C(=O)N[C@@H](CO)C(=O)N[C@@H](C)C(=O)N[C@@H](Cc1ccc(O)cc1)C(N)=O)C(C)C | broth microdilution | ATCC 17978 | highest value reported |  | 16 µM
CC[C@H](C)[C@H](NC(=O)[C@H](CCCCN)NC(=O)[C@@H](NC(=O)[C@@H](NC(=O)[C@H](CC(C)C)NC(=O)[C@H](CCCNC(=N)N)NC(=O)[C@@H](NC(=O)[C@H](CC(C)C)NC(=O)[C@H](CCCNC(=N)N)NC(=O)CNC(=O)[C@H](Cc1ccccc1)NC(=O)[C@@H](N)CCCNC(=N)N)[C@@H](C)CC)[C@@H](C)CC)C(C)C)C(=O)N[C@@H](C)C(=O)N[C@@H](CCCNC(=N)N)C(=O)N[C@@H](CCCNC(=N)N)C(=O)N[C@@H](C)C(=O)N[C@@H](Cc1c[nH]cn1)C(=O)N[C@@H](CCCNC(=N)N)C(=O)N[C@@H](C)C(=O)N[C@@H](CCCNC(=N)N)C(=O)N[C@@H](CO)C(=O)N[C@@H](C)C(=O)N[C@H](C(=O)N[C@@H](CCCCN)C(=O)N[C@@H](C)C(=O)N[C@@H](C)C(=O)N[C@@H](CO)C(=O)N[C@@H](CC(N)=O)C(=O)N[C@H](C(=O)N[C@@H](C)C(=O)N[C@@H](CCC(=O)O)C(=O)N[C@@H](CC(C)C)C(=O)N[C@@H](C)C(=O)N[C@@H](Cc1c[nH]cn1)C(=O)NCC(=O)N[C@@H](CCC(=O)O)C(=O)O)C(C)C)C(C)C | bacterial growth, broth microdilution | cation-adjusted Mueller Hinton broth | 18 h, 37 °C |  | ≤ 0.063 µM
CC[C@H](C)[C@H](NC(=O)CN)C(=O)NCC(=O)N[C@@H](C)C(=O)N[C@H](C(=O)N[C@@H](CC(C)C)C(=O)N[C@@H](CCCCN)C(=O)N[C@H](C(=O)N[C@@H](CC(C)C)C(=O)N[C@H](C(=O)N[C@H](C(=O)NCC(=O)N[C@@H](CC(C)C)C(=O)N1CCC[C@H]1C(=O)N[C@@H](C)C(=O)N[C@@H](CC(C)C)C(=O)N[C@H](C(=O)N[C@@H](CO)C(=O)N[C@@H](Cc1c[nH]c2ccccc12)C(=O)N[C@H](C(=O)N[C@@H](CCCCN)C(=O)N[C@@H](CCCNC(=N)N)C(=O)N[C@@H](CCCCN)C(=O)N[C@@H](CCCNC(=N)N)C(=O)N[C@@H](CCC(N)=O)C(=O)N[C@@H](CCC(N)=O)C(N)=O)[C@@H](C)CC)[C@@H](C)CC)[C@@H](C)O)[C@@H](C)O)C(C)C)C(C)C | broth microdilution, MH medium | KCCM 40203 | 16 h, 37 °C, growth inhibition over 99% |  | 4 µM
CC[C@H](C)[C@H](NC(=O)[C@H](CCCCN)NC(=O)[C@H](CCCCN)NC(=O)CNC(=O)[C@H](CCCCN)NC(=O)[C@H](CC(C)C)NC(=O)[C@H](CCCCN)NC(=O)[C@H](CCCNC(=N)N)NC(=O)[C@@H](NC(=O)[C@H](CC(C)C)NC(=O)[C@H](CCCNC(=N)N)NC(=O)[C@@H](N)CCCNC(=N)N)[C@@H](C)CC)C(=O)N[C@@H](Cc1ccc(O)cc1)C(=O)N[C@@H](CC(C)C)C(=O)N[C@@H](Cc1ccc(O)cc1)C(=O)N[C@@H](Cc1ccccc1)C(=O)N[C@@H](CCCCN)C(=O)N[C@@H](CC(C)C)C(=O)N[C@@H](CCC(N)=O)C(=O)N[C@@H](CC(C)C)C(=O)N[C@@H](CC(C)C)C(=O)N[C@@H](CCCCN)C(=O)N[C@@H](CCCCN)C(N)=O |  | ATCC BAA1605, Mueller-Hinton broth | 24 h |  | 4 µM
CC[C@H](C)[C@H](NC(=O)[C@H](CCCCN)NC(=O)[C@H](CCCNC(=N)N)NC(=O)[C@H](CCCNC(=N)N)NC(=O)[C@H](CC(C)C)NC(=O)[C@H](CCCCN)NC(=O)[C@H](CCCCN)NC(=O)[C@H](Cc1ccccc1)NC(=O)[C@H](CC(C)C)NC(=O)CNC(=O)[C@H](CCCNC(=N)N)NC(=O)[C@@H](N)CCCNC(=N)N)C(=O)N[C@@H](CCCCN)C(=O)N[C@@H](CCCCN)C(=O)NCC(=O)N[C@@H](Cc1ccccc1)C(=O)N[C@@H](CCCCN)C(=O)N[C@@H](CCCCN)C(=O)N[C@H](C(=O)N[C@@H](Cc1ccccc1)C(=O)N[C@@H](CCCCN)C(=O)N[C@@H](CCCNC(=N)N)C(=O)N[C@@H](CC(C)C)C(=O)N1CCC[C@H]1C(=O)N1CCC[C@H]1C(=O)N[C@H](C(=O)NCC(=O)N[C@H](C(=O)NCC(=O)N[C@H](C(=O)N[C@@H](CO)C(=O)O)C(C)C)C(C)C)C(C)C)[C@@H](C)CC |  | ATCC 19606 | highest concentration 50 µM |  | 10.3 µM
CC[C@H](C)[C@H](NC(=O)CNC(=O)[C@H](CC(=O)O)NC(=O)[C@H](CCCNC(=N)N)NC(=O)[C@@H](NC(=O)[C@H](CC(N)=O)NC(=O)[C@H](CCCNC(=N)N)NC(=O)CNC(=O)[C@@H](NC(=O)[C@H](CCCCN)NC(=O)[C@H](CCC(=O)O)NC(=O)[C@@H](NC(=O)[C@H](CCCCN)NC(=O)[C@H](CCCCN)NC(=O)[C@H](Cc1ccccc1)NC(=O)[C@@H](NC(=O)[C@H](CCCCN)NC(=O)[C@H](Cc1c[nH]c2ccccc12)NC(=O)[C@@H](N)CCCNC(=N)N)[C@@H](C)CC)[C@@H](C)CC)C(C)C)C(C)C)C(=O)N[C@H](C(=O)N[C@@H](CCCCN)C(=O)N[C@@H](C)C(=O)NCC(=O)N1CCC[C@H]1C(=O)N[C@@H](C)C(=O)N[C@H](C(=O)N[C@@H](C)C(=O)N[C@H](C(=O)N[C@H](C(=O)NCC(=O)N[C@@H](CCC(N)=O)C(=O)N[C@@H](C)C(=O)N[C@@H](C)C(=O)N[C@H](C(=O)N[C@H](C(=O)N[C@H](C(=O)N[C@@H](CCCCN)C(N)=O)C(C)C)C(C)C)[C@@H](C)O)C(C)C)C(C)C)C(C)C)[C@@H](C)CC |  | CCARM 12004 carbapenem-resistant |  |  | 1 µM

Some of these lines once more:
SMILES | assay | system | conditions | how to read | MIC
CC[C@H](C)[C@H](N)C(=O)N[C@@H](CCCNC(=N)N)C(=O)N[C@H](C(=O)N[C@@H](Cc1c[nH]c2ccccc12)C(=O)N[C@@H](Cc1ccccc1)C(=O)N[C@H](C(=O)N[C@@H](CCCCN)C(=O)N[C@H](C(=O)N[C@@H](CCCNC(=N)N)C(=O)N[C@@H](CCCCN)C(=O)N[C@@H](Cc1c[nH]c2ccccc12)C(=O)N[C@@H](CCCCN)C(=O)N[C@@H](C)C(=O)N[C@H](C(=O)N[C@@H](Cc1ccc(O)cc1)C(=O)N[C@@H](Cc1c[nH]cn1)C(=O)N[C@H](C(N)=O)[C@@H](C)O)[C@@H](C)CC)C(C)C)[C@@H](C)CC)C(C)C | broth dilution | ATCC 19606 |  |  | 12.5 µM
